Assay results pooled from the literature.
Numbered parts are unrelated; each lists some results of a single study.

Study 1
Target: Histone acetyltransferase KAT6A, both winged helices, GST fusion (KAT6A, Homo sapiens, UniProt Q92794, residues 1-181)
Technique: protein binding microarray
Form: double-stranded DNA, one strand shown
Sample: in vitro
Concentration: not given
Notes: 8-mer, flanks averaged, mean of 2 arrays, mostly near background
Reference: not given
Direction: higher = stronger binding
Construct (chain): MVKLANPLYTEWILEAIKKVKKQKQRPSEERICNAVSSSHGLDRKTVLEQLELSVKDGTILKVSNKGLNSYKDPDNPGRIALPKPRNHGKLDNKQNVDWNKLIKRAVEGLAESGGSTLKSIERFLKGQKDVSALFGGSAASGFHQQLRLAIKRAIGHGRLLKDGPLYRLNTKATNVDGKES
The E-score of `CCCGTTAG` is reported as 0.267.
With `ACATACCC` the E-score was -0.123.
The E-score of `GCAGATAA` is reported as -0.0245.
With `CGCGAACG` the E-score was 0.291.
`ACTTATAA` has an E-score of -0.129.
For `ACTGAAGG`, the E-score was -0.108.
With `GGGAAAAC` the E-score was 0.0533.
`AACTATTG` has an E-score of -0.00724.
The E-score of `CCGGGGTC` is reported as 0.182.
`CATCGGGG` gave an E-score of 0.0993.
`AGTCGGAT` has an E-score of 0.134.
With `CATCAGCC` the E-score was -0.0947.
For `CGCCTAAA`, the E-score was 0.17.
`GGGAGACC` gave an E-score of 0.0609.
For `GATTACCC`, the E-score was 0.00157.
With `AGACTGAG` the E-score was -0.123.
`GGGTGTTA` has an E-score of -0.00085.
`ATCTGGCG` has an E-score of -0.0173.
The E-score of `AAAAGGCG` is reported as 0.0912.

Study 2
Substance: PhoQ, residues 284 288 289 292 302 303 NSMLDC
Technique: Sort-seq
Item: YFP reporter
Sample: E. coli
Notes: PhoQ-PhoP variant library
Together with: 10 µM Mg2+
Reference: high Mg2+ state
Direction: higher = stronger signaling
For PhoP, residues 12 14 15 18 19 VGHWL (Escherichia coli, UniProt P23836): fold induction read 2.72.
The fold induction was 10.6 (PhoP, residues 12 14 15 18 19 NFFVT (Escherichia coli, UniProt P23836)).
The fold induction was 4.26 (PhoP, residues 12 14 15 18 19 TPWTL (Escherichia coli, UniProt P23836)).
For PhoP, residues 12 14 15 18 19 LHHYF (Escherichia coli, UniProt P23836): fold induction read 36.3.

Study 3
Target: Fragile X messenger ribonucleoprotein 1, C-terminal low-complexity region (Fmr1, Mus musculus, UniProt P35922)
Technique: RNA Bind-n-Seq
Form: RNA
Sample: in vitro
Concentration: 200 nM
Notes: whole 134-nt RNA, ends assumed
Together with: 150 mM LiCl
Reference: input library
Direction: higher = stronger binding
All molecules: 7-deaza-guanosine replaces G
For `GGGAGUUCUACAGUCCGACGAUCAGUCCUGUGCUACACAUCGUAUGUACCGAAUCGGCCCCCGGCCCCCGGGCCCCCGGGGAAAGUAUUAUGUUACGCCGUUCGGAUCUGCACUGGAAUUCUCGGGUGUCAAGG`, the log2 enrichment was -0.73.
For `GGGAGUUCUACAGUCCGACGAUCUGGCCCUGGUGGCAUGCGGGGAGGAAGAGGUGGCCUCAUGGAUCGUGGUGGUCCCGGUGGAAUGUUCAGAGGUGGCCGUGGUGGCGACAGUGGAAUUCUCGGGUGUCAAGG`, the log2 enrichment was -0.583.
The log2 enrichment of `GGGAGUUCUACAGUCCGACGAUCGUCCUGUGCUACACAUCGUAUGUACCGAAUCGGUUUUUGGGGUUUUUGGGGUUUUUGGGAAAGUAUUAUGUUACGCCGUUCGGAUCUGCAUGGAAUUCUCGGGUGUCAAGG` is reported as -0.588.
`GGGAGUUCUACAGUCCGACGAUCCACAGACAACACGCACCCACACAGAGACAGAGGGAAGGGGUUGGGAUGGGGACAGGGUGCACAGCAGGGCGGGGUAGGACCCCAGCCCCUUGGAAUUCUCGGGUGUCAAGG` gave a log2 enrichment of 1.24.
With `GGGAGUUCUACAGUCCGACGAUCUGGGAGGUGGAUUUUGUUUAUUUUUUUAGCUCAUUCCCAGGGGUGGGAAUUUUUUUUUAAUAUGUGUCAUGAAUAAAGUUGUUUUUGAAAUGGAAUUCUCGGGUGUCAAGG` the log2 enrichment was -0.166.

Study 4
Target: Sal-like protein 4, full length isoform A (SALL4, Homo sapiens, UniProt Q9UJQ4, residues 1-1053)
UniProt Q9UJQ4, sequence (whole entry, looked up): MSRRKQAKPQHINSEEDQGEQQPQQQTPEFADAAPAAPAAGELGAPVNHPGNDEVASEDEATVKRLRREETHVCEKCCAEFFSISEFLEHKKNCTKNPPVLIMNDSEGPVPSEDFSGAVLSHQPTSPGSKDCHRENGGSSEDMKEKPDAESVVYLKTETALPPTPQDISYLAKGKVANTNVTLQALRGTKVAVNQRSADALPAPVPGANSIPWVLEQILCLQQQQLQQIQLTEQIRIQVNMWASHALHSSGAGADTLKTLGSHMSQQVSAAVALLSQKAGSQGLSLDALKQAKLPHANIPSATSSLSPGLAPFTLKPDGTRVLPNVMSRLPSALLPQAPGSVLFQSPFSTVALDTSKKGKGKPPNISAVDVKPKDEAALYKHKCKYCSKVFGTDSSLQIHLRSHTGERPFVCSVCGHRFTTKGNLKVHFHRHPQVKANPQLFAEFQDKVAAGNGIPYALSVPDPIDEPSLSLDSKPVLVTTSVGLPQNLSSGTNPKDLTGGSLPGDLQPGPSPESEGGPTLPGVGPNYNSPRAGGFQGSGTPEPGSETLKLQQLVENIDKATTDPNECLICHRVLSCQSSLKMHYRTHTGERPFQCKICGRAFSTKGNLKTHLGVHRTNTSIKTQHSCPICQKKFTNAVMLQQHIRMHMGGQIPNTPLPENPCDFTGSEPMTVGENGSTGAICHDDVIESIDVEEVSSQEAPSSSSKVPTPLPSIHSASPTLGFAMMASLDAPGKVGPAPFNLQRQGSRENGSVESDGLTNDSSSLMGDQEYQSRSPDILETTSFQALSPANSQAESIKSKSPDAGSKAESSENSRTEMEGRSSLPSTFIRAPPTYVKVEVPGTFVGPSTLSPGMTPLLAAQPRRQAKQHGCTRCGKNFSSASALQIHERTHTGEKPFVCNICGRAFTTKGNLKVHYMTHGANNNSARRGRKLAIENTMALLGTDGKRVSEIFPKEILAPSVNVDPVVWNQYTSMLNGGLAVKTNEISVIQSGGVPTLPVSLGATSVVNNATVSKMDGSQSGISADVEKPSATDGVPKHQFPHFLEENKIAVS
Technique: universal PBM
Form: double-stranded DNA, one strand shown
Sample: in vitro
Concentration: 600 nM
Notes: 8-mer, flanks averaged, mean of replicates
Direction: higher = stronger binding
The E-score of `CCTTAAAC` is reported as -0.0452.
With `CCGGTGCA` the E-score was -0.283.
With `ACTCGAAT` the E-score was 0.0827.
`GTCATTTA` gave an E-score of 0.192.
`ATGGGCTC` gave an E-score of -0.148.
`CGGATGCC` gave an E-score of -0.145.
With `AACAACTG` the E-score was 0.161.
The E-score of `CCTATGCA` is reported as 0.155.
With `ACTGGTCA` the E-score was -0.0719.
For `GTGAGGAA`, the E-score was -0.0321.
With `CCACAATA` the E-score was 0.134.
`AGCGCAAA` has an E-score of 0.0303.
For `GCATTTCC`, the E-score was 0.052.
`CTCTCTGC` has an E-score of -0.215.
`GCATTTCA` has an E-score of 0.187.
`TCGATCAA` gave an E-score of -0.0231.
`TATCAGGA` gave an E-score of 0.21.
`GTATGGGA` gave an E-score of -0.0759.
With `CATAAGGC` the E-score was 0.0755.

For quick reference, copied from above (study 4):
For `GTGAGGAA`, the E-score was -0.0321.
`GTATGGGA` gave an E-score of -0.0759.
`CGGATGCC` gave an E-score of -0.145.
`TCGATCAA` gave an E-score of -0.0231.
With `AACAACTG` the E-score was 0.161.
